Measurements from different studies.
Numbered parts are unrelated; each lists some results of a single study. Changes are numbered by the printed parent chain.

Set 1
Target: CCNE2, cyclin fold, Cln2 fusion (human)
Technique: yeast growth competition, sequencing
Sample: yeast
Setting: weak parent motif
Relative to: not given
Reading: higher = stronger binding
Parent: ORC1 docking peptide (human); PRARKRLELGNLG
| Substitution | normalised enrichment score |
| --- | --- |
| PRARKRLGLGNLG [E8G] | 0.562 |
| PEARKRLELGNLG [R2E] | 0.351 |
| PRARKRLELGNMG [L12M] | 0.86 |
| PRARKCLELGNLG [R6C] | 0.728 |
| PRARKELELGNLG [R6E] | -0.302 |
| PRARKRLELGNLY [G13Y] | 0.522 |
| TRARKRLELGNLG [P1T] | 0.506 |
| SRARKRLELGNLG [P1S] | 1.14 |
| PRARKRLEFGNLG [L9F] | 2.36 |
| PRARKRLELRNLG [G10R] | -0.0286 |

Set 2
Target: ABI1, truncated, D143A, DHFR fusion (Arabidopsis thaliana)
Technique: DHFR PCA, deep sequencing
Sample: yeast
Setting: methotrexate growth selection, single substitutions
Together with: (+)-ABA 200 µM
Relative to: wild-type fitted maximum
Reading: higher = stronger binding
Parent: PYL1, truncated, DHFR fusion (Arabidopsis thaliana); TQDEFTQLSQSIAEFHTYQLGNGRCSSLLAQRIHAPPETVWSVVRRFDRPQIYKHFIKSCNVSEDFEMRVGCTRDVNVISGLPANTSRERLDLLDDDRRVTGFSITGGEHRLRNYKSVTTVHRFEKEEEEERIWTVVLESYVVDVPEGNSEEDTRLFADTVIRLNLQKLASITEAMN
| Substitution | relative binding score [%] |
| --- | --- |
| A13H | 99.6 |
| V121N | -0.992 |
| H55A | 104 |
| L169E | 9.36 |
| E4F | 83.8 |
| L29S | 77.9 |

Set 3
Target: Histone acetyltransferase KAT6A, both winged helices, GST fusion (KAT6A, Homo sapiens, UniProt Q92794, residues 1-181)
Technique: protein binding microarray
Form: double-stranded DNA, one strand shown
Sample: in vitro
Tested at: not given
Setting: 8-mer, flanks averaged, mean of 2 arrays, mostly near background
Relative to: not given
Reading: higher = stronger binding
Target sequence (chain): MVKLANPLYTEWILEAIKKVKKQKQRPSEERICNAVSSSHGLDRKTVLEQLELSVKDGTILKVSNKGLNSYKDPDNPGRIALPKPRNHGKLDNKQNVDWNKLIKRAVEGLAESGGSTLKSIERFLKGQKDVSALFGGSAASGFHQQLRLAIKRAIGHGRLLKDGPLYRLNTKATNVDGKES
| Oligonucleotide | E-score |
| --- | --- |
| GGGTAAAC | 0.0173 |
| GGGCCGTA | 0.208 |
| TAACTACA | -0.0694 |
| ACAAACGG | 0.208 |
| AGATGGCG | 0.0601 |
| CTAGAGAA | -0.0754 |
| CGCGAAAG | 0.158 |
| GATTGGGC | -0.0944 |
| ATCAATTG | -0.0924 |
| AAGGACGG | 0.216 |
| AACACCGA | 0.147 |
| GACGGATA | 0.253 |
| AGAATTAG | -0.218 |

Other studies, line by line
| Molecule | target | assay | system | conditions | how to read | quantity | result |
| --- | --- | --- | --- | --- | --- | --- | --- |
| PhoQ, residues 284 288 289 292 302 303 TTCLQL | PhoP, residues 12 14 15 18 19 LHHSG (Escherichia coli, UniProt P23836) | Sort-seq, refers to: YFP reporter | E. coli | PhoQ-PhoP variant library, together with: 10 µM Mg2+ | relative to: high Mg2+ state, higher = stronger signaling | fold induction | 2.41 |
